Published values gathered from unrelated publications.
Every numbered part comes from another study and shows a few of its results, in no order.

Study 1
Target: RNA binding protein fox-1 homolog 2, RRM domain, GST-SBP tag (RBFOX2, Homo sapiens, UniProt O43251-10, residues 100-194)
Technique: RNA Bind-n-Seq
Molecule type: RNA
Matrix: in vitro
Concentration: 365 nM
Setting: natural RNA segment, single round, ends assumed
Relative to: no-protein control
Direction: higher = stronger binding
Target sequence (chain): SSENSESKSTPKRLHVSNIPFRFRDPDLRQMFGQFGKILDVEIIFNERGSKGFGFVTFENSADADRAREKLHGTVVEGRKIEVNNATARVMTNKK
Strand | RBNS enrichment (R)
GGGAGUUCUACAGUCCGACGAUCCGUCUGUCUCUUGGCUAUUUUAACCUAAAAUAACCAGUCUAGUUCUAUCCCCUCUUCUUGUAAAGCACAAGCCGGGGGCCGUGAGUGUAUUACAACCCAACGGCGGCCCAUGGAAUUCUCGGGUGCCAA | 0.192
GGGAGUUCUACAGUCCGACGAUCUUCUUUCAUGCCUCUUGUAAUGUUCUGAACAAACUUGAAUGAUGAAAGUAUUAAAGAGAUAUCAGUAUUUGAGGUUUGUAUUUUCUUCUGUCUCUGGGGAGGAUUUCUCAUGGAAUUCUCGGGUGCCAA | 0.34
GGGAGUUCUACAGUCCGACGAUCGUGGAGACGUUUCCAGAUCAGCCCAAGUUUACUAUAGAGACUGGCCCAGGCACUGAAUGUCUAGGACAUGCUGUGGAUGAAGAUAAAGAUGGUGGAAUAGGUUUUAUCACUGGAAUUCUCGGGUGCCAA | 0.541
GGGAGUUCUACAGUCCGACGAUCUAAAGUCCAGCCUAUUACAAACAAACAAACAAACAAACAAACAAAGGACCUCCAUUUGGAGAAUUGCAAGGAUUUUAUCCUGAAUUAUAGUGUUGGUGAGUUCAAGUCAUUGGAAUUCUCGGGUGCCAA | 0.658
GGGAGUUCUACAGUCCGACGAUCAGUGUCUGUGAUCACUAACAGGGAGUGGGCCUUGAGUCCACUCCAGAACUGUGGUGGGAGACCAAUACUCUUAACAGACUGUCCAGUAGGUAUCGGGAAUCCUUGAACAAUGGAAUUCUCGGGUGCCAA | 0.204
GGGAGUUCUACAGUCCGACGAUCUGGUUUGUGUAGGAGUUCCCUGUAGAUAAAUUACUGGUCCCCCAACCACUAUCCCCAGUAUGUAAUGGCUGAAUUAAUAUGUAAUCAACUGCAUUGUAUCUAAAGCCUUAUGGAAUUCUCGGGUGCCAA | 0.611
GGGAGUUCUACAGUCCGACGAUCGGCCAGAACCAGCCUCUGCGGGGCUUGUGCUCUGCAAAGACUCUGCUGCUGGGGAUUCAGCUCUAGAGGUCACAGUAUCCUCGUUUGAAAGAUAAUUAAGAUCCCCCGUGUGGAAUUCUCGGGUGCCAA | 0.291
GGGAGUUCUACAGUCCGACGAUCUAGAGUUGCUCAGAAUCUUGUAGGGUUUUCUGAUCUGGUUACCUCUAGCUGCCAUGUGGGGUCCACCUCUUGCCUCAGCAACUUUCCAGGACCUUUGAACUUGCCAGAUAUGGAAUUCUCGGGUGCCAA | 0.511

Study 2
Target: Histone acetyltransferase KAT6A, winged helix 2, GST fusion (KAT6A, Homo sapiens, UniProt Q92794, residues 85-181)
Technique: protein binding microarray
Molecule type: double-stranded DNA, one strand shown
Matrix: in vitro
Concentration: not given
Setting: 8-mer, flanks averaged, mean of 2 arrays, mostly near background
Relative to: not given
Direction: higher = stronger binding
Construct (chain): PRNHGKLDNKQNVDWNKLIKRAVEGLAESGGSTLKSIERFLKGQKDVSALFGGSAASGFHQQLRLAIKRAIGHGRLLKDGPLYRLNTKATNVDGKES
Strand | E-score
TCGCTTAA | -0.0583
TTCTACAA | 0.0164
AAAACCGG | 0.09
GAAACGTC | -0.138
TTCAACAA | 0.00362
CCCGAGAA | 0.153
CAAATGGC | -0.084

Study 3
Target: Sal-like protein 4, full length isoform A (SALL4, Homo sapiens, UniProt Q9UJQ4, residues 1-1053)
Sequence of UniProt Q9UJQ4 (whole entry, looked up): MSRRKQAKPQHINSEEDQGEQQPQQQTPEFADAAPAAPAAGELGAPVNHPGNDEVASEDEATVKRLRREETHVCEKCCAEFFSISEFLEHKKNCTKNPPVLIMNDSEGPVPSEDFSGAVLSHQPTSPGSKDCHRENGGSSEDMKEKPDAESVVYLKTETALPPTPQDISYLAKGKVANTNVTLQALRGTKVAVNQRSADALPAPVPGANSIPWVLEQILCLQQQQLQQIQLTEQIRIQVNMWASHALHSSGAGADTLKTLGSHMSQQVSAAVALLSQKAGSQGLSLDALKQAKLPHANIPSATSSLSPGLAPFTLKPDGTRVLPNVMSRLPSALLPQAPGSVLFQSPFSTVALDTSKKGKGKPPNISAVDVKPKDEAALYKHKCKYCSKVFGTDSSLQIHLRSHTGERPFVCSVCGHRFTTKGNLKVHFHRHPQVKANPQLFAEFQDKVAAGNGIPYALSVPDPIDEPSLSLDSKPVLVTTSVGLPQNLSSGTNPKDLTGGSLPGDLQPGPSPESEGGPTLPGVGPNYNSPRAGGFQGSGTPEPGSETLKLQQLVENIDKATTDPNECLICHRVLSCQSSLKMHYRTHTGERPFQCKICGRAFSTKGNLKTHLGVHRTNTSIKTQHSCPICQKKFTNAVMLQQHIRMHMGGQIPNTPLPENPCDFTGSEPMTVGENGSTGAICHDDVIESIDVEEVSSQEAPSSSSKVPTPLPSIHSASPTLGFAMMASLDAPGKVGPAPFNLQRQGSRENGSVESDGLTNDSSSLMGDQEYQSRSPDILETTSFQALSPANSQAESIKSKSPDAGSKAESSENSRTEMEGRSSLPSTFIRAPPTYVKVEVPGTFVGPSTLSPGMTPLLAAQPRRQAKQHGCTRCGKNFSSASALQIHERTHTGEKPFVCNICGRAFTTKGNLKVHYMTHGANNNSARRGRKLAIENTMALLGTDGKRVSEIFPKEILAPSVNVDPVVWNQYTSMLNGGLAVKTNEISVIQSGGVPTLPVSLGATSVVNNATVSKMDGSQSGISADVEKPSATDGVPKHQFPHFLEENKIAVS
Technique: universal PBM
Molecule type: double-stranded DNA, one strand shown
Matrix: in vitro
Concentration: 600 nM
Setting: 8-mer, flanks averaged, mean of replicates
Direction: higher = stronger binding
Strand | E-score
ACCGCCTC | -0.224
CTACAGCA | -0.0937
GACGTAAC | 0.0152
ACACGTAC | 0.0574
GAGGACTA | 0.0715
ACACTTGA | 0.0338
ACAGCAGG | 0.0129
CTACACAC | 0.0931

Further values, each from its own experiment
Molecule | target | assay | system | conditions | scale | quantity | result
PhoQ, residues 284 288 289 292 302 303 AGGLSV | PhoP, residues 12 14 15 18 19 STHWV (Escherichia coli, UniProt P23836) | Sort-seq, refers to: YFP reporter | E. coli | PhoQ-PhoP variant library, together with: 10 µM Mg2+ | relative to: high Mg2+ state, higher = stronger signaling | fold induction | 1.58

Excerpt of the above (further values, each from its own experiment):
Molecule | target | assay | system | conditions | scale | quantity | result
PhoQ, residues 284 288 289 292 302 303 AGGLSV | PhoP, residues 12 14 15 18 19 STHWV (Escherichia coli, UniProt P23836) | Sort-seq, refers to: YFP reporter | E. coli | PhoQ-PhoP variant library, together with: 10 µM Mg2+ | relative to: high Mg2+ state, higher = stronger signaling | fold induction | 1.58
